Assay results collected from several papers.
Protocols differ between the studies behind these lines.
Read-out: cell growth or viability

| Compound | cell line | method | tested at | time | notes | viability |
| --- | --- | --- | --- | --- | --- | --- |
| CCc1c(C)c2ccc(OCC(=O)NNC(=S)Nc3ccccc3)c(C)c2oc1=O | MDA-MB-231 | MTT | 1000 µg/mL | – | – | 2.85% |
| CC(=NNC(N)=S)c1ccc(Nc2nnc(-c3ccc(Cl)cc3)c3ccccc23)cc1 | HepG2 | MTT | 5 µM | 24 h | – | 7.36% |
| COc1ccc(NC(=O)c2c(Nc3ccccc3)sc(C#N)c2NC(=O)CNc2ccc(O)cc2)cc1 | HCT-116 | SRB | 100 µM | 48 h | – | 56.9% |
| CCc1c(C)c2ccc(OCC(=O)NN=Cc3ccc([N+](=O)[O-])cc3)cc2oc1=O | MDA-MB-231 | MTT | 62.5 µg/mL | – | – | 32.9% |
| Cc1ccc(C(CS(=O)(=O)c2ccccc2)=NNc2nc(C)c(N=Nc3cccc(C)c3)s2)cc1 | SK-MEL-23 | MTT | 6.3 µM | 48 h | – | 50% |
| COc1ccc(NC(=O)Nc2ccc(-c3cn(Cc4ccc(Cl)cc4)nn3)cc2)cc1 | Huh-7 | CCK-8 | 50 µM | 48 h | – | 84.6% |
| Cc1ccc(C(CS(=O)(=O)c2ccccc2)=NNC2=NC(=O)C(=NNc3ccccc3)S2)cc1 | SK-MEL-23 | MTT | 25 µM | 48 h | – | 28.6% |
| COc1ccc(NC(=O)c2c(Nc3ccccc3)sc(C#N)c2NC(=O)CNc2ccc(Br)cc2)cc1 | HCT-116 | SRB | 1 µM | 48 h | – | 64.5% |
| NC(=S)NN=C(CS(=O)(=O)c1ccccc1)c1ccc(F)cc1 | SK-MEL-23 | MTT | 1.6 µM | 48 h | – | 68.8% |
| O=C(C=Cc1ccccc1)Nc1ccc(Oc2nnc(-c3ccc(Cl)cc3)c3ccccc23)cc1 | HepG2 | MTT | 2.5 µM | 24 h | – | 12.1% |
| Cc1ccc(C(CS(=O)(=O)c2ccccc2)=NNC2=NC(=O)C(=NNc3ccc([N+](=O)[O-])cc3)S2)cc1 | SK-MEL-23 | MTT | 1.6 µM | 48 h | – | 67.9% |
| CC(=NNC(=O)c1ccccc1Cl)c1ccc(Nc2nnc(-c3ccc(Cl)cc3)c3ccccc23)cc1 | HepG2 | MTT | 0.312 µM | 24 h | – | 80.2% |
| COc1cccc2c1C(=O)c1c(O)c3c(c(O)c1C2=O)C[C@@](O)(C(=O)CO)C[C@@H]3O[C@H]1C[C@H](N)[C@H](O)[C@H](C)O1 | Caco-2 | MTT | 50 µg/mL | 48 h | serum-free | 12.8% |
| COc1ccc(NC(=O)c2c(Nc3ccccc3)sc(C#N)c2NC(=O)CNc2ccc(C)cc2)cc1 | HCT-116 | SRB | 1 nM | 48 h | – | 100% |
| O=C(Nc1ccc(Oc2nc3ccccc3n3cnnc23)cc1)Nc1cccc(Cl)c1 | MDA-MB-231 | MTT | 25 µM | 24 h | – | 52.4% |
| COc1ccc(NC(=O)Nc2cccc(-c3cn(Cc4ccc(Cl)cc4)nn3)c2)cc1 | Huh-7 | CCK-8 | 50 µM | 72 h | – | 10.7% |
| C=CCOc1ccc2c(C)c(CC)c(=O)oc2c1C | MDA-MB-231 | MTT | 125 µg/mL | – | – | 66% |
| COc1ccc(NC(=O)Nc2cccc(-c3cn(Cc4ccc(C)cc4)nn3)c2)cc1 | Huh-7 | CCK-8 | 50 µM | 72 h | – | 10.8% |
| CC(=NNC(=O)COc1ccc2c(C)c(Cc3ccccc3)c(=O)oc2c1C)c1ccc(Br)cc1 | HCT-116 | MTT | 25 µg/mL | – | – | 43.5% |
| COc1ccc(NC(=O)NCc2cn(Cc3ccc(C)cc3)nn2)cc1 | Huh-7 | CCK-8 | 50 µM | 72 h | – | 91.2% |

| Compound | cell line | method | tested at | time | notes | viability |
| --- | --- | --- | --- | --- | --- | --- |
| Cc1c(Cc2ccccc2)c(=O)oc2c(C)c(OCC(=O)NN=Cc3ccc(Cl)cc3)ccc12 | MDA-MB-231 | MTT | 500 µg/mL | – | – | 19.4% |
| CC(=O)Nc1cccc(-n2c(=O)n(C3CC3)c(=O)c3c(Nc4ccc(I)cc4F)n(C)c(=O)c(C)c32)c1 | SW1417 | resazurin | 50 nM | 72 h | – | 55.3% |
| Cc1ccc(C(CS(=O)(=O)c2ccccc2)=NNc2nc(-c3ccc(OCCCCOc4ccc(-c5csc(NN=C(CS(=O)(=O)c6ccccc6)c6ccc(C)cc6)n5)cc4)cc3)cs2)cc1 | SK-MEL-23 | MTT | 1.6 µM | 48 h | – | 65.7% |
| CC(=O)Nc1ccc(Oc2nnc(-c3ccc(Cl)cc3)c3ccccc23)cc1 | HepG2 | MTT | 5 µM | 24 h | – | 6.46% |
| CC(C)(C)c1nc(-c2cccc(NS(=O)(=O)c3c(F)cccc3F)c2F)c(-c2ccnc(N)n2)s1 | SK-MEL-23 | MTT | 25 µM | 48 h | – | 44% |
| O=C(Nc1ccccc1)Nc1ccc(Oc2nc3ccccc3n3cnnc23)cc1 | MDA-MB-231 | MTT | 1.56 µM | 24 h | – | 100% |
| CCCOc1ccc2c(C)c(CC)c(=O)oc2c1C | MDA-MB-231 | MTT | 31.25 µg/mL | – | – | 99% |
| O=C(Nc1ccc(Oc2nnc(-c3ccc(Cl)cc3)c3ccccc23)cc1)c1ccccc1 | MCF7 | MTT | 10 µM | 24 h | – | 6.68% |
| COc1ccc(NC(=O)c2c(Nc3ccccc3)sc(C#N)c2NC(=O)CNc2ccc([N+](=O)[O-])cc2)cc1 | HCT-116 | SRB | 1 µM | 48 h | – | 71.4% |
| COc1cccc(NC(=O)Nc2ccc(Oc3nc4ccccc4n4cnnc34)cc2)c1 | MDA-MB-231 | MTT | 6.25 µM | 24 h | – | 71.3% |
| Cc1c(Cc2ccccc2)c(=O)oc2c(C)c(OCC(=O)NN=Cc3ccccc3)ccc12 | MDA-MB-231 | MTT | 31.25 µg/mL | – | – | 20.4% |
| O=C(Nc1ccc(Cl)cc1)Nc1cccc(-c2cn(Cc3cccc(Br)c3)nn2)c1 | Huh-7 | CCK-8 | 50 µM | 48 h | – | 96.1% |
| COc1ccc(NC(=O)c2c(Nc3ccccc3)sc(C(=O)NN=Cc3ccc(OC)c(O)c3)c2NC(C)=O)cc1 | HCT-116 | SRB | 1 µM | 48 h | – | 46.4% |
| CC(=NNC(=O)c1ccc(N)cc1)c1ccc(Nc2nnc(-c3ccc(Cl)cc3)c3ccccc23)cc1 | HepG2 | MTT | 5 µM | 24 h | – | 15.8% |
| COc1ccc(NC(=O)Nc2cccc(-c3cn(Cc4ccccc4C)nn3)c2)cc1 | Huh-7 | CCK-8 | 50 µM | 48 h | – | 51.5% |
| COc1ccc(NC(=O)c2c(Nc3ccccc3)sc(C#N)c2NC(=O)CNc2ccccc2)cc1 | HCT-116 | SRB | 10 nM | 48 h | – | 92.6% |
| Cc1c(Cc2ccccc2)c(=O)oc2c(C)c(OCC(=O)NN=Cc3ccco3)ccc12 | MDA-MB-231 | MTT | 1000 µg/mL | – | – | 1.07% |
| CNC(=O)c1cc(Oc2ccc(NC(=O)Nc3ccc(Cl)c(C(F)(F)F)c3)cc2)ccn1 | HCT-116 | SRB | 10 nM | 48 h | – | 85.7% |
| CC(=NNC(=O)c1ccccc1)c1ccc(Nc2nnc(-c3ccc(Cl)cc3)c3ccccc23)cc1 | HepG2 | MTT | 10 µM | 24 h | – | 3.3% |

For quick reference, copied from above:
| Compound | cell line | method | tested at | time | notes | viability |
| --- | --- | --- | --- | --- | --- | --- |
| COc1cccc(NC(=O)Nc2ccc(Oc3nc4ccccc4n4cnnc34)cc2)c1 | MDA-MB-231 | MTT | 6.25 µM | 24 h | – | 71.3% |
| COc1ccc(NC(=O)c2c(Nc3ccccc3)sc(C#N)c2NC(=O)CNc2ccccc2)cc1 | HCT-116 | SRB | 10 nM | 48 h | – | 92.6% |
| O=C(Nc1ccc(Oc2nc3ccccc3n3cnnc23)cc1)Nc1cccc(Cl)c1 | MDA-MB-231 | MTT | 25 µM | 24 h | – | 52.4% |
| O=C(C=Cc1ccccc1)Nc1ccc(Oc2nnc(-c3ccc(Cl)cc3)c3ccccc23)cc1 | HepG2 | MTT | 2.5 µM | 24 h | – | 12.1% |
| COc1ccc(NC(=O)c2c(Nc3ccccc3)sc(C(=O)NN=Cc3ccc(OC)c(O)c3)c2NC(C)=O)cc1 | HCT-116 | SRB | 1 µM | 48 h | – | 46.4% |
| CC(=NNC(=O)COc1ccc2c(C)c(Cc3ccccc3)c(=O)oc2c1C)c1ccc(Br)cc1 | HCT-116 | MTT | 25 µg/mL | – | – | 43.5% |
